Results collected from several papers.
Lines come from different studies, so protocols differ.

Structure (SMILES) | test system | setting | endpoint | value
O=C(Nc1cnccc1Cl)N1CCN(Cc2ccc3c(c2)OC(F)(F)O3)CC1 | human healthy young men, plasma | oral, 25 mg once daily, day 1, multiple dose median | tmax | 1.24 h
C=CC(=O)Nc1cc(Nc2nccc(-c3c[nH]c4ccccc34)n2)c(OC)cc1N(C)CCN(C)C | human, plasma | cycle 3 day 1, safety run-in, with: cisplatin plus pemetrexed | Tmax at steady state | 4.03 h
Cc1nc2ccc(F)cc2n1-c1nc(N)c(F)c(Nc2ccc(C(F)(F)F)cc2)n1 | human patients, plasma | oral, 400 mg twice weekly, cycles 1 and 2 pooled | Tmax median | 3.55 h
COc1cc(C(=O)NC2CCN(C)CC2)c(F)cc1Nc1ncc(C(F)(F)F)c(Oc2cccc3c2C(=O)N(C)C3)n1 | human patients, plasma | oral, 10 mg once daily repeated, median | Tmax at steady state | 3.51 h
Cc1noc(C)c1-c1cc(C(O)(c2ccccn2)c2ccccn2)c2nc(C3CC3)[nH]c2c1 | human patients, plasma | oral, 1.4 mg, cycle 1 day 8, monotherapy | Tmax | 0.6 h
Cc1cc(C)c(CNC(=O)c2cc(Cl)c3c(c2C)O[C@@](C)([C@H]2CC[C@H](N(C)C)CC2)O3)c(=O)[nH]1 | human, plasma | oral, 200 mg, cycle 1 day 15 | Tmax unbound drug | 3.91 h
C=CC(=O)Nc1cc(Nc2nccc(-c3cn(C)c4ccccc34)n2)c(OC)cc1N(C)CCN(C)C | human, plasma | oral, cycle 3 day 1, safety run-in, with: cisplatin plus pemetrexed | Tmax at steady state | 5.91 h
Cc1cn(C(=O)c2c(-c3c(Cl)cc(Cl)cc3Cl)noc2C(C)(C)F)c2cccc(/C=C/C(=O)O)c12 | human patients | 125 mg bid, cycle 1 day 1 | Tmax | 1.98 h
N#Cc1ccc2c(c1)[C@H]1CCCN(C(=O)c3ccc4[nH]cnc4c3)[C@H]1C2 | human, plasma | oral, 240 mg once daily, steady state, median | tmax steady state | 0.667 h
CN(C)N=Nc1[nH]cnc1C(N)=O | human patients, plasma | intravenous, 1000 mg/m^2 over 1 h, cycle 2 day 1, staggered with twice-weekly co-drug | Tmax (median) | 1 h
C[C@H](O)c1cc(C(=O)N[C@@H](C)Cn2ccc(-c3ccc(C#N)c(Cl)c3)n2)n[nH]1 | human, fasted, plasma | oral, 300 mg darolutamide tablet, median | tmax | 3.5 h

Repeated from above:
Structure (SMILES) | test system | setting | endpoint | value
N#Cc1ccc2c(c1)[C@H]1CCCN(C(=O)c3ccc4[nH]cnc4c3)[C@H]1C2 | human, plasma | oral, 240 mg once daily, steady state, median | tmax steady state | 0.667 h
